Measurements gathered from unrelated publications.
Lines come from different studies, so protocols differ. Several values in a cell are separate wells, animals, samples, runs or records. ± gives the spread as reported.
icl: Isocitrate lyase (icl, Mycobacterium tuberculosis, UniProt P9WKK7)
OPRK1: Kappa-type opioid receptor (OPRK1, Homo sapiens, UniProt P41145)
uncharacterized protein: uncharacterized protein (Aptenodytes forsteri, UniProt A0A087QWN2)
aac: Aminoglycoside 2'-N-acetyltransferase (aac, Mycobacterium tuberculosis, UniProt P9WQG9)
Slc6a2: Transporter (Slc6a2, Rattus norvegicus, UniProt Q63380)

C=CCN1CC[C@]23c4c5ccc(O)c4O[C@H]2C(=O)CC[C@@]3(O)[C@H]1C5
inhibition (rat Opiate receptor; binding; 1 × 10 µM): 100%

O=C(O)C1=CC=C(COc2ccc3ccc(=O)oc3c2)C1
delta Tm (icl; thermal shift, SYPRO Orange; 1 mM, pH 7.5, 1 mM MgCl2, protein 20 µM): > 0.5 °C

O=C(COc1ccc(Cl)cc1Cl)N/N=C/c1cc2c(s1)CCCC2
remaining activity (1-deoxy-D-xylulose-5-phosphate synthase (Mycobacterium tuberculosis, UniProt P9WNS3); inhibitor; concentration not given): 50%

Cl.O=C(N[C@H]1CC[C@@]2(O)[C@H]3Cc4ccc(O)c5c4[C@@]2(CCN3CC2CC2)[C@H]1O5)c1ccc(C(F)F)s1
selectivity ratio (OPRK1; radioligand binding; CHO membranes; relative to: Ki µ over Ki κ): 9.8

CCCc1cc(C(=O)Cc2cc3ccccc3o2)c(O)cc1O
delta Tm (icl; thermal shift, SYPRO Orange; 1 mM, pH 7.5, 1 mM MgCl2, protein 20 µM): > 0.5 °C

COc1ccc(C(=O)N[C@H]2CC[C@@]3(O)[C@H]4Cc5ccc(O)c6c5[C@@]3(CCN4CC3CC3)[C@H]2O6)s1.Cl
selectivity ratio (OPRK1; radioligand binding; CHO membranes; relative to: Ki µ over Ki κ): 5.45

CNC1(c2ccccc2Cl)CCCCC1=O (racemic)
inhibition (OPRK1; radioligand binding, agonist, radioligand displacement; 30 µM): 50%

Cc1ccc(C(=O)CC(=O)c2ccco2)c(O)c1
delta Tm (icl; thermal shift, SYPRO Orange; 1 mM, pH 7.5, 1 mM MgCl2, protein 20 µM): > 0.5 °C

CC(=O)S(=O)(=O)c1ccc(C(=O)N[C@H]2CC[C@@]3(O)[C@H]4Cc5ccc(O)c6c5[C@@]3(CCN4CC3CC3)[C@H]2O6)s1.Cl
selectivity ratio (OPRK1; radioligand binding; CHO membranes; relative to: Ki µ over Ki κ): 4.1

C[C@]12CCC(=O)C=C1CC[C@@H]1[C@@H]2CC[C@]2(C)C(=O)CC[C@@H]12
koff (uncharacterized protein; Aptenodytes forsteri): 5.2 ± 1.4 s⁻¹

CCCCCCCC[C@H]1O[C@H]1C/C=C/C=C/[C@H](O)CC(=O)NC1=C[C@](C)(CC)OC1=O
binding stoichiometry (Na(+)-translocating NADH-quinone reductase subunit B, whole Na+-NQR complex (nqrB, Vibrio cholerae serotype O1, UniProt Q9KPS2); ITC; concentration not given, 20 °C, wild type): 0.57 ± 0.01

COc1ccsc1CNCC[C@@]1(c2ccccn2)CCOC2(CCCC2)C1
log(tau/KA) (Oprm1 (Mus musculus, UniProt P42866); GIRK current, perforated patch clamp; AtT20 cells; 80% receptor knockdown): 7.2 ± 0.08

CCOC(=O)c1ccc(CC(=O)c2oc3cc(O)ccc3c2C)o1
delta Tm (icl; thermal shift, SYPRO Orange; 1 mM, pH 7.5, 1 mM MgCl2, protein 20 µM): > 0.5 °C

Clc1ccc(COc2ccccc2CNCc2ccncc2)cc1
highest concentration without inhibition (aac; neomycin acetylation, inhibitor; with: neomycin): > 200 µM

C[C@]12CC[C@H]3[C@@H](CCC4=CC(=O)CC[C@@]43CO)[C@@H]1CCC2=O
koff (uncharacterized protein; Aptenodytes forsteri): 6.5 ± 2 s⁻¹

C#CCOc1ccc(C=C2C(=O)NC(=O)NC2=O)cc1Br
labelling (UCHL1 (Homo sapiens, UniProt P09936); covalent, intact protein LC-MS; 12.5 µM): 28.1%

CCCC(NC)C(=O)c1ccc2c(c1)OCO2 (racemic)
EC50 (Slc6a2; substrate release, releaser; rat brain synaptosomes; with: [3H]MPP+ 9 nM): inactive

COC(=O)[C@@H](NC(=O)c1nn(Cc2ccc(F)cc2)c2ccccc12)C(C)(C)C
Gi GTP turnover minimum (CNR1 (Homo sapiens, UniProt P21554); GTPase; relative to: compound): 98%

c1ccc2cc([C@]34CNC[C@H]3C4)ccc2c1
dopamine uptake (SLC6A3 (Homo sapiens, UniProt Q01959); inhibitor, [3H]dopamine uptake; 10 µM; relative to: no inhibitor): 3.39% and 2.01% and 2.2%

O=P(O)(O)O[C@H]1O[C@H](CO)[C@H](O)[C@H](O)[C@H]1O
Km (lacto-N-biose phosphorylase; substrate): 680 ± 160 µM

CC(=O)Nc1ccc(C(=O)N[C@H]2CC[C@@]3(O)[C@H]4Cc5ccc(O)c6c5[C@@]3(CCN4CC3CC3)[C@H]2O6)s1.Cl
selectivity ratio (OPRK1; radioligand binding; CHO membranes; relative to: Ki µ over Ki κ): 9.54

Clc1cccc(COc2ccccc2CNCc2ccncc2)c1
highest concentration without inhibition (aac; neomycin acetylation, inhibitor; with: neomycin): > 200 µM

NC(CC(=O)O)c1cccnc1 (centres unmarked)
delta Tm (icl; thermal shift, SYPRO Orange; 1 mM, pH 7.5, 1 mM MgCl2, protein 20 µM): > 0.5 °C

Oc1ccc2c3c1O[C@H]1[C@@H](O)CC[C@@]4(O)[C@@H](C2)N(CC2CCC2)CC[C@]314
log2 fold change (Probable G-protein coupled receptor 160 (GPR160, Homo sapiens, UniProt Q9UJ42); β-arrestin recruitment, TANGO luminescence, refers to: GPR160; concentration not given; relative to: basal luminescence): 0.489

COc1ccc(O)c(C(=O)CC(=O)c2ccccc2)c1
delta Tm (icl; thermal shift, SYPRO Orange; 1 mM, pH 7.5, 1 mM MgCl2, protein 20 µM): > 0.5 °C

Brc1ccc(COc2ccccc2CNCc2ccccc2)cc1
highest concentration without inhibition (aac; neomycin acetylation, inhibitor; with: neomycin): > 200 µM

Cl.NC(=O)c1ccc(C(=O)N[C@H]2CC[C@@]3(O)[C@H]4Cc5ccc(O)c6c5[C@@]3(CCN4CC3CC3)[C@H]2O6)s1
selectivity ratio (OPRK1; radioligand binding; CHO membranes; relative to: Ki µ over Ki κ): 13.6

CCNC(CC)C(=O)c1ccc2c(c1)OCO2 (centres unmarked)
EC50 (Slc6a2; substrate release, releaser; rat brain synaptosomes; with: [3H]MPP+ 9 nM): inactive

C[C@]12CC[C@H](O)CC1=CC[C@@H]1[C@@H]2CC[C@]2(C)C(=O)CC[C@@H]12
sulfonation rate (SULT2A1 (Homo sapiens, UniProt Q06520); substrate, HPLC; 50 µM): 88 nmol/min/mg and 62 nmol/min/mg and 70 nmol/min/mg and 78 nmol/min/mg and 83 nmol/min/mg

Excerpt of the above:
COc1ccc(C(=O)N[C@H]2CC[C@@]3(O)[C@H]4Cc5ccc(O)c6c5[C@@]3(CCN4CC3CC3)[C@H]2O6)s1.Cl
selectivity ratio (OPRK1; radioligand binding; CHO membranes; relative to: Ki µ over Ki κ): 5.45

Clc1cccc(COc2ccccc2CNCc2ccncc2)c1
highest concentration without inhibition (aac; neomycin acetylation, inhibitor; with: neomycin): > 200 µM

Clc1ccc(COc2ccccc2CNCc2ccncc2)cc1
highest concentration without inhibition (aac; neomycin acetylation, inhibitor; with: neomycin): > 200 µM

COc1ccsc1CNCC[C@@]1(c2ccccn2)CCOC2(CCCC2)C1
log(tau/KA) (Oprm1 (Mus musculus, UniProt P42866); GIRK current, perforated patch clamp; AtT20 cells; 80% receptor knockdown): 7.2 ± 0.08

CCCCCCCC[C@H]1O[C@H]1C/C=C/C=C/[C@H](O)CC(=O)NC1=C[C@](C)(CC)OC1=O
binding stoichiometry (Na(+)-translocating NADH-quinone reductase subunit B, whole Na+-NQR complex (nqrB, Vibrio cholerae serotype O1, UniProt Q9KPS2); ITC; concentration not given, 20 °C, wild type): 0.57 ± 0.01
